Measurements gathered from unrelated publications.
Lines come from different studies, so protocols differ. Numbers after ± are the reported error.
Organism: Plasmodium falciparum

SMILES | assay | test system | conditions | scale | endpoint | value
CN1CCN(S(=O)(=O)c2ccc(-c3ccc4ncnc(Nc5ccc(F)cc5)c4c3)cc2)CC1 | parasite growth, SYBR Green fluorescence | C235 (TM91C235), drug-resistant | – | – | EC50 | 380 nM
Cc1cc(Nc2ccc(Cl)cc2)n2nc(C(F)(F)F)nc2n1 | parasite growth, SYBR Green | 3D7 wild type | 72 h | – | EC50 | 1090 ± 330 nM
C[C@H]1Cc2c([nH]c3cc(Cl)c(F)cc23)[C@@]2(N1)C(=O)Nc1ccc(Cl)cc12 | parasite growth | K1 | – | – | EC50 | 1.9 ± 0.2 nM
Oc1cccc2c1[nH]c1c(C3=CC4(O)CCC=CCCCCN5CCC3C3(CC6C=CCCCCN6C43)C5)nccc12 (single isomer, unassigned; (+)) | – | W2, chloroquine-resistant | – | relative to: Vero IC50 over W2 IC50 | selectivity index | 35
Cc1cc(Cl)ccc1OC(C)C(=O)N1CCc2ccccc21 (stereo not drawn) | parasite growth, SYBR Green | 3D7 | 72 h | – | EC50 | 65.1 nM
CC1CCC(C(C)(C)C(=O)Nc2ccc(Oc3ccccc3)cc2)CC1 (stereo not drawn) | parasite growth, SYBR Green | HB3 | blood stage | – | IC50 | 61 nM
c1ccc(COc2ccc(Nc3ncnc4ccc(-c5cccc(N6CCOCC6)c5)cc34)cc2)cc1 | parasite growth, SYBR Green fluorescence | C235 (TM91C235), drug-resistant | – | – | EC50 | > 15000 nM
CC(NC(=O)c1cccc(C(c2ccccc2)N2C(=N)NC(C)(C(C)C)CC2=O)c1)c1ccccc1 (stereo not drawn) | parasite growth | 3D7-compound.1 resistant line | – | – | EC50 | 48.3 nM
COc1cc2c3cc1Oc1cc(ccc1O)CC1c4c(cc(OC)c(O)c4Oc4ccc(cc4)CC3N(C)CC2)CCN1C (stereo not drawn) | parasite growth, SYBR Green | – | blood stage | – | IC50 | 510 nM
O=S(=O)(c1ccc(-c2ccc3ncnc(Nc4ccc(OCc5cccc(F)c5)c(Cl)c4)c3c2)cc1)N1CCCC1 | parasite growth, SYBR Green fluorescence | C235 (TM91C235), drug-resistant | – | – | EC50 | 420 nM
Nc1ncnc2c1c(-c1ccc(Oc3ccccc3)cc1)cn2C1CCCC1 | growth, SYBR green | FVO | concentration not given, 36 h | – | activity | active
COc1ccc2cc1Oc1cc3c(cc1OC)CCN(C)C3Cc1ccc(cc1)Oc1c(O)c(OC)cc3c1C(C2)N(C)CC3 (stereo not drawn) | parasite growth, inhibitor, SYBR Green I | 3D7 | – | – | IC50 | 500 nM
COC(=O)C1=CO[C@@H](C)[C@@H]2Cn3ccc4c5ccccc5nc-4c3C[C@H]12 | growth, [3H]-hypoxanthine uptake | Dd2 | 72 h | relative to: Dd2 IC50 over 3D7 IC50 | resistance index | 2
Cc1nc2c(C#N)cccc2n1-c1ccc(C(=O)NC2CC2)s1 | parasite growth | Dd2 | – | – | EC50 | 5.95 ± 1.3 nM
O=C(c1ccc(-c2ccc3ncnc(Nc4ccc(OCc5cccc(F)c5)c(Cl)c4)c3c2)cc1)N1CCOCC1 | parasite growth, SYBR Green fluorescence | C235 (TM91C235), drug-resistant | – | – | EC50 | 610 nM
CCCN(Cc1nnc(-c2ccco2)o1)C(=O)C1CCCN(C(=O)c2ccc(Cl)cc2)C1 (stereo not drawn) | parasite growth | – | – | – | EC50 | 68.6 ± 49 nM
C[C@@H]1CC[C@H]2[C@@H](C)C(=O)O[C@@H]3O[C@@]4(C)CC[C@@H]1[C@]32OO4 | parasite growth, SYBR Green | 3D7 | 72 h, blood stage | – | IC50 | 19.3 nM
COc1ccccc1-n1c(SCC(=O)Nc2ccccc2F)nc2cccnc21 | parasite growth, SYBR Green | 3D7 wild type | 72 h | – | EC50 | 332 ± 130 nM
O=S(=O)(c1ccc(-c2ccc3ncnc(Nc4ccc(OCc5cccc(Cl)c5)c(Cl)c4)c3c2)cc1)N1CCOCC1 | parasite growth, SYBR Green fluorescence | C235 (TM91C235), drug-resistant | – | – | EC50 | 330 nM
O=C1C(O)=C([C@H]2CC[C@H](c3ccc(Cl)cc3)CC2)C(=O)c2ccccc21 | parasite growth | 3D7 | – | – | EC50 | 1.7 ± 0.5 nM
CN1CCN(S(=O)(=O)c2ccc(-c3ccc4ncnc(Nc5ccc(OCc6ccccc6)cc5)c4c3)cc2)CC1 | parasite growth, SYBR Green fluorescence | W2, drug-resistant | – | – | EC50 | 110 nM
COc1ccccc1-n1ccnc1SCC(=O)Nc1cc(C(F)(F)F)ccc1Cl | parasite growth | – | – | – | EC50 | 31.2 ± 7.6 nM
OC(c1cc(C(F)(F)F)nc2c(C(F)(F)F)cccc12)C1CCCCN1 (stereo not drawn) | parasite growth | K1 | – | – | EC50 | 3.6 ± 1.3 nM
c1ccc(Nc2ncnc3ccc(-c4cccc(N5CCOCC5)c4)cc23)cc1 | parasite growth, SYBR Green fluorescence | W2, drug-resistant | – | – | EC50 | 3300 nM
CCC1(CC)CC(=O)N(C2CCOc3ccc(C(=O)NC4CC(C)(C)Oc5ccccc54)cc32)C(=N)N1 (stereo not drawn) | parasite growth | Dd2 | – | – | EC50 | 0.5 nM
Fc1cccc(COc2ccc(Nc3ncnc4ccc(-c5ccc(CN6CCCCC6)cc5)cc34)cc2Cl)c1 | parasite growth, SYBR Green fluorescence | W2, drug-resistant | – | – | EC50 | 110 nM
O[C@]12C=C(c3nccc4c3[nH]c3ccccc34)[C@@H]3CCN(CCCC/C=C\CC1)C[C@@]31C[C@@H]3/C=C\CCCCN3[C@H]12 | – | W2, chloroquine-resistant | – | relative to: Vero IC50 over W2 IC50 | selectivity index | 38
CCN(CC)CCCC(C)Nc1ccnc2cc(Cl)ccc12 (stereo not drawn) | parasite growth | Dd2-NITD609 | – | – | EC50 | 591 ± 104 nM
Cc1nc2ccc(-c3ccc(OC(F)(F)F)cc3)cc2c(O)c1C#N | parasite growth | Dd2 | – | – | EC50 | 11.7 ± 5 nM
COCCN(C)C(C)C(=O)NC(Cc1ccc(-c2ccccc2)cc1)B(O)O (stereo not drawn) | – | compound-selected recrudescent clone 1E9_D2 | 72 h | – | IC50 | 7730 ± 880 nM

For quick reference, copied from above:
SMILES | assay | test system | conditions | scale | endpoint | value
Oc1cccc2c1[nH]c1c(C3=CC4(O)CCC=CCCCCN5CCC3C3(CC6C=CCCCCN6C43)C5)nccc12 (single isomer, unassigned; (+)) | – | W2, chloroquine-resistant | – | relative to: Vero IC50 over W2 IC50 | selectivity index | 35
Cc1cc(Nc2ccc(Cl)cc2)n2nc(C(F)(F)F)nc2n1 | parasite growth, SYBR Green | 3D7 wild type | 72 h | – | EC50 | 1090 ± 330 nM
CN1CCN(S(=O)(=O)c2ccc(-c3ccc4ncnc(Nc5ccc(F)cc5)c4c3)cc2)CC1 | parasite growth, SYBR Green fluorescence | C235 (TM91C235), drug-resistant | – | – | EC50 | 380 nM
c1ccc(COc2ccc(Nc3ncnc4ccc(-c5cccc(N6CCOCC6)c5)cc34)cc2)cc1 | parasite growth, SYBR Green fluorescence | C235 (TM91C235), drug-resistant | – | – | EC50 | > 15000 nM
CCC1(CC)CC(=O)N(C2CCOc3ccc(C(=O)NC4CC(C)(C)Oc5ccccc54)cc32)C(=N)N1 (stereo not drawn) | parasite growth | Dd2 | – | – | EC50 | 0.5 nM
